Measured values collected from several papers.
Numbered parts are unrelated; each lists some results of a single study.

Series 1
Target: POU domain, class 6, transcription factor 1, POU and homeodomain (POU6F1, Homo sapiens, UniProt Q14863, residues 311-611)
Technique: protein-binding microarray
Molecule type: hairpin DNA
Matrix: in vitro
Concentration: not given
Setting: whole hairpin DNA, median over replicate spots
Reference: not given
Direction: higher = stronger binding
All sequences stand within: GAGGCCAT … ATGGCCTCACACTCTT
Target sequence (chain): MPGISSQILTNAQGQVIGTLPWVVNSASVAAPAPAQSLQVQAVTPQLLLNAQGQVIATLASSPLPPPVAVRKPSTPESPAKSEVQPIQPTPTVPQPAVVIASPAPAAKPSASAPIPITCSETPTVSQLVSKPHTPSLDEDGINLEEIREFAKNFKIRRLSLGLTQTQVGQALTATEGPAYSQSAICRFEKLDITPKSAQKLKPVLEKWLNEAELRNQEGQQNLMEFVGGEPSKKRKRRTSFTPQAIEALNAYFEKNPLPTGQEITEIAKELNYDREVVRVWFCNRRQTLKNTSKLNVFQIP
`AATTACGTGCCTCCTGGCACGTAATT` has a median fluorescence of 1050 a.u.
The median fluorescence of `CGTTAGGTGCCTCCTGGCACCTAACG (5mC at 9 33)` is reported as 354 a.u.
For `AATTAGGCGCCTCCTGGCGCCTAATT`, the median fluorescence was 1440 a.u.
`AATCGGGTGCCTCCTGGCACCCGATT (5mC at 12)` has a median fluorescence of 410 a.u.
With `AATTAGGAGCCTCCTGGCTCCTAATT` the median fluorescence was 1610 a.u.

Series 2
Target: Interferon regulatory factor 7, full length, phosphomimetic (IRF7, Homo sapiens, UniProt Q92985, residues 1-503, S101K/S471D/S472D/S475D/S476D/S477D/S483D/S484D/S487D)
Technique: protein-binding microarray
Molecule type: double-stranded DNA, one strand shown
Matrix: in vitro
Concentration: 250 nM
Setting: 60-bp whole probe
Together with: salmon DNA 0.4 mg/ml
Reference: random background probes
Direction: higher = stronger binding
All sequences stand within: GCCTAGCAC … GTGCTAGGTCTTGATTCGCTTGACGCTGCTG
Target sequence (chain): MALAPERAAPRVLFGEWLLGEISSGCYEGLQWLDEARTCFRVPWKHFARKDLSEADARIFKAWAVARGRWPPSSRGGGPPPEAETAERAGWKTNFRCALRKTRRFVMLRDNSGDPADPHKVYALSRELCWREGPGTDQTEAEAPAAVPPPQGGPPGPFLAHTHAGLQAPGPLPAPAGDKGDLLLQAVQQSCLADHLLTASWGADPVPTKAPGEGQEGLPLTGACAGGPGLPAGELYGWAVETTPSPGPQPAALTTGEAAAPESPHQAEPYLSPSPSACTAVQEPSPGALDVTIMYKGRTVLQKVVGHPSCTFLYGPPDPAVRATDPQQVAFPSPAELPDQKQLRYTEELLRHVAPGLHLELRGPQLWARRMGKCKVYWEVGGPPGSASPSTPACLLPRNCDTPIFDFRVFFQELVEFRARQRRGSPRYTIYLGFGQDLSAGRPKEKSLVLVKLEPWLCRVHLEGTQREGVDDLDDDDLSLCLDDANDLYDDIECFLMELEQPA
`TCATTTATGGTTTTTTTACT` gave a log fluorescence of 0.692 z-score.
The log fluorescence of `TTAGGTTTCGGTTTCGGTTA` is reported as 14.6 z-score.
For `TTGGGTATCGGTTTCGGTTA`, the log fluorescence was 10.3 z-score.
The log fluorescence of `GACGGTAACGGTATCGGGAC` is reported as 0.134 z-score.
With `TGGGCTACCTCTCTTAGAAT` the log fluorescence was -0.931 z-score.
`GACGGTATCGGTCTAGGGAC` gave a log fluorescence of 0.518 z-score.

Series 3
Target: Sal-like protein 4, full length isoform A (SALL4, Homo sapiens, UniProt Q9UJQ4, residues 1-1053)
Sequence of UniProt Q9UJQ4 (whole entry, looked up): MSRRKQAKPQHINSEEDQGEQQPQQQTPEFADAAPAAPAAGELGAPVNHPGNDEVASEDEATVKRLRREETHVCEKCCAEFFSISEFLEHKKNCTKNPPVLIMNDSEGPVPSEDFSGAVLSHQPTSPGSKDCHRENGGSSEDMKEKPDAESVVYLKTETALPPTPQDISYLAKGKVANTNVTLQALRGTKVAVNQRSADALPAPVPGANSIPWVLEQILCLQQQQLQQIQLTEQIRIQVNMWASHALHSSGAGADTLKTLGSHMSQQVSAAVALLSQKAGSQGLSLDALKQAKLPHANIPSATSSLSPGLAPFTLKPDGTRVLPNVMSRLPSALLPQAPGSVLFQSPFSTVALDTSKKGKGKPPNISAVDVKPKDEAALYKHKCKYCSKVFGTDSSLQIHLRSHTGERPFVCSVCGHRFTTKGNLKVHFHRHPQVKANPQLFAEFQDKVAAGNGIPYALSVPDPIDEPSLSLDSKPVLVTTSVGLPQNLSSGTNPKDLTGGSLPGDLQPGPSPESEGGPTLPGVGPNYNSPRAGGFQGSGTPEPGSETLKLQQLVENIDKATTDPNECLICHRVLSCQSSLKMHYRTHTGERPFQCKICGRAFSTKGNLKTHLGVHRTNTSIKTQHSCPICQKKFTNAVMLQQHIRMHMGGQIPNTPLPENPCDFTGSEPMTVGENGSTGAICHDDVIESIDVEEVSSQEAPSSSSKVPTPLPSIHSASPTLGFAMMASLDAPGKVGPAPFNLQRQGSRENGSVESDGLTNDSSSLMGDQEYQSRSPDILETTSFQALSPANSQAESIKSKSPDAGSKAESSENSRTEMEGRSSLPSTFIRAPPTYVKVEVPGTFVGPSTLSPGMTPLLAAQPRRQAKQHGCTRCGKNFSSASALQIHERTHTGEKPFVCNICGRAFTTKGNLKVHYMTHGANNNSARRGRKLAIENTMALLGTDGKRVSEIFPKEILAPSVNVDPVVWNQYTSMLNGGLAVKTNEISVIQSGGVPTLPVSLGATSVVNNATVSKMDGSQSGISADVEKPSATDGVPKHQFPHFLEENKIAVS
Technique: universal PBM
Molecule type: double-stranded DNA, one strand shown
Matrix: in vitro
Concentration: 600 nM
Setting: 8-mer, flanks averaged, mean of replicates
Direction: higher = stronger binding
The E-score of `ATGGGGCC` is reported as -0.415.
The E-score of `CATCAGCA` is reported as 0.0411.
`CAGAATAC` has an E-score of 0.202.
`ACCCCAGC` has an E-score of -0.164.
For `GACTGTCC`, the E-score was -0.197.
For `CCGTCTCG`, the E-score was -0.165.

Single results of other studies
`PhoQ, residues 284 288 289 292 302 303 GTAMQF` has a fold induction of 4.23 (PhoP, residues 12 14 15 18 19 QYCSL (Escherichia coli, UniProt P23836); Sort-seq, item: YFP reporter; E. coli; PhoQ-PhoP variant library, together with: 10 µM Mg2+; reference: high Mg2+ state, higher = stronger signaling).

A few entries again (series 3):
For `CCGTCTCG`, the E-score was -0.165.
The E-score of `CATCAGCA` is reported as 0.0411.
